Experimental data from different studies.
Numbered parts are unrelated; each lists some results of a single study. Positions count from the first letter of the parent shown.

Block 1
Target: ABI1, truncated, D143A, DHFR fusion (Arabidopsis thaliana)
Method: DHFR PCA, deep sequencing
Sample: yeast
Notes: methotrexate growth selection, single substitutions
Together with: (+)-ABA 17 µM
Baseline: wild-type fitted maximum
Direction: higher = stronger binding
Parent: PYL1, truncated, DHFR fusion (Arabidopsis thaliana); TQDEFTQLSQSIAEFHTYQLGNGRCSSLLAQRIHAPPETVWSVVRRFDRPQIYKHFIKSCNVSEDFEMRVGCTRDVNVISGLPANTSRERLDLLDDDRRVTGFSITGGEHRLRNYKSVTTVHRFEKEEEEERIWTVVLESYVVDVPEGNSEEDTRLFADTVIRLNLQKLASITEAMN; partner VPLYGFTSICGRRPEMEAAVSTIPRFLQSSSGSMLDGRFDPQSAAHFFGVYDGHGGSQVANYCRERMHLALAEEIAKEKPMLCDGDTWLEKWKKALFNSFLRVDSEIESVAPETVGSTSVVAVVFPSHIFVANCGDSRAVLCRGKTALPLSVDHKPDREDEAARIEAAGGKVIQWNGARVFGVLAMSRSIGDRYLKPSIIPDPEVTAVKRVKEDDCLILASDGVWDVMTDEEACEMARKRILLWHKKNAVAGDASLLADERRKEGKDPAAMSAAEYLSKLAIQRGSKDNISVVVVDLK
`R46D` — result for “relative binding score”: 27.8%.
For `D97I`, “relative binding score” read 84%.
`V121G`: “relative binding score” 4.99%.
`C25G`: “relative binding score” -0.0745%.
`R90T`: “relative binding score” 68.5%.
`I162F`: “relative binding score” -15.5%.
`I33R` — result for “relative binding score”: 4.79%.
Under “relative binding score”, `L156P` is recorded as -22.9%.

Block 2
Molecule: PhoQ, residues 284 288 289 292 302 303 QWGLFV
Method: Sort-seq
Item: YFP reporter
Sample: E. coli
Notes: PhoQ-PhoP variant library
Together with: 10 µM Mg2+
Baseline: high Mg2+ state
Direction: higher = stronger signaling
The fold induction was 0.977 (PhoP, residues 12 14 15 18 19 ICWRQ (Escherichia coli, UniProt P23836)).
It gave 8.99 for fold induction (PhoP, residues 12 14 15 18 19 VHTVL (Escherichia coli, UniProt P23836)).
It gave 1.36 for fold induction (PhoP, residues 12 14 15 18 19 TQCLL (Escherichia coli, UniProt P23836)).

Block 3
Target: PABPC1L2, full length, GST fusion (mouse, UniProt A0ABA7IW68)
Method: RNAcompete
Molecule type: RNA
Sample: in vitro
Concentration: 20 nM
Notes: 7-mer, probes averaged, single round
Baseline: mean of 7-mers
Direction: higher = stronger binding
Construct (chain): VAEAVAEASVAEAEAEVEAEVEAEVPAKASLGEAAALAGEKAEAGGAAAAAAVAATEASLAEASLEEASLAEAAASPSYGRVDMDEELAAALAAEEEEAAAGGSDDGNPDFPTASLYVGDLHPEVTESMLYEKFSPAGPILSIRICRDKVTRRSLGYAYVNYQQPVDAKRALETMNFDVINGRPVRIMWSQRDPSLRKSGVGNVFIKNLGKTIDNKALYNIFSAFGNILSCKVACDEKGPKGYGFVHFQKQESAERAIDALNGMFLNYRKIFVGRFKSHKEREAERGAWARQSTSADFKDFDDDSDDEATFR
The 7-mer Z-score of `UACUACA` is reported as -0.126.
With `GGCGCAC` the 7-mer Z-score was 0.0207.
With `UGGGCAU` the 7-mer Z-score was 0.263.
With `ACAGUCU` the 7-mer Z-score was -0.168.
`CUUGGCC` gave a 7-mer Z-score of -0.295.
For `GGAGGUC`, the 7-mer Z-score was 0.215.
With `AGCGAGG` the 7-mer Z-score was 0.336.
The 7-mer Z-score of `ACGAUAU` is reported as 0.017.
`UAUGUGG` gave a 7-mer Z-score of 0.157.
`ACCAAGC` has a 7-mer Z-score of -0.126.
With `GCAAUUA` the 7-mer Z-score was -0.0518.
For `GAUGAGG`, the 7-mer Z-score was -0.0772.
`GUCGUCU` has a 7-mer Z-score of -0.59.
With `CGGCAUC` the 7-mer Z-score was -0.126.
`GCAAGCC` gave a 7-mer Z-score of -0.22.
With `AUUGCGU` the 7-mer Z-score was -0.142.
For `GUGACCA`, the 7-mer Z-score was -0.021.
`UACUAGU` gave a 7-mer Z-score of -0.197.
`CGACGUC` gave a 7-mer Z-score of -0.168.
The 7-mer Z-score of `UUUAAAC` is reported as 0.0642.
The 7-mer Z-score of `GCGACGC` is reported as -0.133.

Block 4
Target: CCNF, cyclin fold, Cln2 fusion (human)
Method: yeast growth competition, sequencing
Sample: yeast
Notes: strong parent motif
Baseline: not given
Direction: higher = stronger binding
Parent: SAMHD1 docking peptide (human); ASKSRVQLFKDDP; partner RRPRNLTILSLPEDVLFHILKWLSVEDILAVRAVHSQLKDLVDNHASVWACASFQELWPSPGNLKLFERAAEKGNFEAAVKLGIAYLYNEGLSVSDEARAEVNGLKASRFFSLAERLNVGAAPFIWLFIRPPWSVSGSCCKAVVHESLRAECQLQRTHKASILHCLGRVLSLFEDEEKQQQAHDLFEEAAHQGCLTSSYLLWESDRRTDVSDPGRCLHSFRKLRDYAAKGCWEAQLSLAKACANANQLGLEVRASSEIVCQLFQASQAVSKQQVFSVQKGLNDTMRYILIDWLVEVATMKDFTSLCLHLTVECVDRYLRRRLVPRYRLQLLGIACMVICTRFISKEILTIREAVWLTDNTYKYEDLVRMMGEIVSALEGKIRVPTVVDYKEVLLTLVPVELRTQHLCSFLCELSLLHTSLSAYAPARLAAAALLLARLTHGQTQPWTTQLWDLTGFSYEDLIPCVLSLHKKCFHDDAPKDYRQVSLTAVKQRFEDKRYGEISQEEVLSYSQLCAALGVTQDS
Under “normalised enrichment score”, `S4T` is recorded as 3.78.
Under “normalised enrichment score”, `Q7C` is recorded as 1.34.
`S4M` — result for “normalised enrichment score”: 1.39.
`V6W`: “normalised enrichment score” 0.0108.
`D11W` — result for “normalised enrichment score”: 0.409.
For `R5D`, “normalised enrichment score” read -0.501.
For `D12C`, “normalised enrichment score” read 0.882.
Under “normalised enrichment score”, `D11V` is recorded as 0.842.
`K3T` — result for “normalised enrichment score”: 0.95.
Under “normalised enrichment score”, `K3M` is recorded as 1.72.
Under “normalised enrichment score”, `K3C` is recorded as 1.44.
For `S2V`, “normalised enrichment score” read 2.25.
`R5C`: “normalised enrichment score” 1.29.
`F9P` — result for “normalised enrichment score”: -0.263.
`K3G`: “normalised enrichment score” 0.853.
`D12M` — result for “normalised enrichment score”: 1.57.
`S4L`: “normalised enrichment score” 2.19.

A few entries again (block 3):
`GCAAGCC` gave a 7-mer Z-score of -0.22.
With `GCAAUUA` the 7-mer Z-score was -0.0518.
The 7-mer Z-score of `GCGACGC` is reported as -0.133.
With `UGGGCAU` the 7-mer Z-score was 0.263.
`GUCGUCU` has a 7-mer Z-score of -0.59.
`CGACGUC` gave a 7-mer Z-score of -0.168.
With `AUUGCGU` the 7-mer Z-score was -0.142.
